Assay results from different studies.
Every numbered part comes from another study and shows a few of its results, in no order.

Study 1
Target: Interferon regulatory factor 3, full length, phosphomimetic (IRF3, Homo sapiens, UniProt Q14653, residues 1-427, S386D/S396D/S398D/S402D/T404D/S405D)
Method: protein-binding microarray
Form: double-stranded DNA, one strand shown
Medium: in vitro
Concentration: 2540 nM top
Setting: 60-bp whole probe
Added: salmon DNA 0.4 mg/ml
Reference: random background probes
Direction: higher = stronger binding
Endpoint: fitted relative affinity
Shared flanks, not repeated: GCCTAGCAC … GTCTTGATTCGCTTGACGCTGCTG
Target sequence (chain): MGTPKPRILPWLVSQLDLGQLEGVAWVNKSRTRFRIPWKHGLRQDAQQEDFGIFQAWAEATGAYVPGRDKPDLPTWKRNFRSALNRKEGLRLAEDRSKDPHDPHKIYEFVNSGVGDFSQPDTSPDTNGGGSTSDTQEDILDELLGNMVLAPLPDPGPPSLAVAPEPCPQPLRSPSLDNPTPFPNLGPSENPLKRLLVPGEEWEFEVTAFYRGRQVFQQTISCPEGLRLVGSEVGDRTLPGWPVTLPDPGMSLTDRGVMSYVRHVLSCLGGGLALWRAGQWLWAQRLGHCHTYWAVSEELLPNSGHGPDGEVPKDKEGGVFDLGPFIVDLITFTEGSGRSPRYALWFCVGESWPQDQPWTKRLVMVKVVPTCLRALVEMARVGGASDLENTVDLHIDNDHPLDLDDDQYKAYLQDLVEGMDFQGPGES
TCAGATGTCAAACTCACACTGTGCTAG: 0.0943 z-score
GGGCATTTTTTTATCAATCAGTGCTAG: 0.178 z-score
TTAGGACTGGCCTATCGGTTAGTGCTA: -0.801 z-score
TTAGGACTGGGGTATCGGTAAGTGCTA: -0.296 z-score
TTAGGTTTCTGGTTTCGGTTAGTGCTA: 4.92 z-score
CTAGATCTCAGACTGGATTAGTGCTAG: 0.0742 z-score
ATCTTTTTCCCTATTATATAGTGCTAG: 3.82 z-score
GCCGATTTCGGGACTGGAGACGTGCTA: 2.5 z-score
GGCGGTTTCGGGTTTCGGGACGTGCTA: 5.99 z-score
GACGATATCGGGACTGGGGACGTGCTA: 0.0181 z-score
TTAGGTCTCGGATTCGGTTAGTGCTAG: 2.11 z-score
TTAGGTTTCGGGTATCGGATAGTGCTA: 4.5 z-score
TCATATCTCTGTTTTTGACTGTGCTAG: 1.37 z-score
ACAAATACAAGTTTCTCCTTGTGCTAG: 1.01 z-score
TTAGATATCGGGTATCGGTTAGTGCTA: 0.924 z-score
CCTACCGCCCTTACCGCCGCGTGCTAG: 0.666 z-score
CGCCCTCTCAACCATCCTGGGGTGCTA: 0.13 z-score
AAATCTAAAAAGTCTCTGGGAGTGCTA: -0.108 z-score
TTTACTTTCTATGTCTGTTTGTGCTAG: 4.81 z-score

Study 2
Target: Sal-like protein 4, full length isoform A (SALL4, Homo sapiens, UniProt Q9UJQ4, residues 1-1053)
Chain of UniProt Q9UJQ4 (whole entry, looked up): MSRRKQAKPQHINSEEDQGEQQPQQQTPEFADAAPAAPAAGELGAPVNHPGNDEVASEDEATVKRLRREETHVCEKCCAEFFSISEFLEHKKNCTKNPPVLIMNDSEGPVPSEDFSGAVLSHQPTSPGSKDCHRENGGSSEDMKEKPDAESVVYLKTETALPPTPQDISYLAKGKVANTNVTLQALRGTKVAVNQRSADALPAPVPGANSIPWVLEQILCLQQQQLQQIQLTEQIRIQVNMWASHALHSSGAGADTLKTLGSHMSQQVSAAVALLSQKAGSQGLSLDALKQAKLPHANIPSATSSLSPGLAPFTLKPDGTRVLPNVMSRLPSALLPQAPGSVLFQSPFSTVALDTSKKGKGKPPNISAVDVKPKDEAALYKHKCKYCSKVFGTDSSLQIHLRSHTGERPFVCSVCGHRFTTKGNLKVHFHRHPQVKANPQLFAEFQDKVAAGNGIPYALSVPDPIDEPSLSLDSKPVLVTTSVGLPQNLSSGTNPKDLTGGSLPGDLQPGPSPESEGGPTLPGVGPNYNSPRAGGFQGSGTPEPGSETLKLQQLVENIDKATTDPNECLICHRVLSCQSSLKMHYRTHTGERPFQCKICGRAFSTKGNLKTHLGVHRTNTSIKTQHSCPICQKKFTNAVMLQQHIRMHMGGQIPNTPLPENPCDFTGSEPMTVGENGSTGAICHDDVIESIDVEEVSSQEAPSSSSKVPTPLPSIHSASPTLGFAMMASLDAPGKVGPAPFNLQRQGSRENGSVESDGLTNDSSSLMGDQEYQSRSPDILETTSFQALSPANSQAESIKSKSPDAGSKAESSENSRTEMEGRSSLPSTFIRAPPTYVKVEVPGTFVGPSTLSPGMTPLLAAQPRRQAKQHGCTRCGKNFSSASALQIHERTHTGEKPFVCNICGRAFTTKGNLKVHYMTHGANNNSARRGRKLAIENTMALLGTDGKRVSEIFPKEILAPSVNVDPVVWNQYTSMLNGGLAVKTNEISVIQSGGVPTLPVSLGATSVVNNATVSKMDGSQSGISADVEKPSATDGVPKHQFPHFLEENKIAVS
Method: universal PBM
Form: double-stranded DNA, one strand shown
Medium: in vitro
Concentration: 600 nM
Setting: 8-mer, flanks averaged, mean of replicates
Direction: higher = stronger binding
Endpoint: E-score
ACTTGGTC: -0.142
CTTTTTAA: 0.248
GACGCCTA: -0.273
TCCCATCA: 0.0287
GCAAATAA: 0.281
CAGTTTTC: 0.0452
AATGGAAG: 0.0594
GAGCTAAA: -0.0469
GAGATTGA: 0.123
ACAGTCCG: -0.186
CTCCCGTA: -0.137
CTGAAAAC: 0.146
ATCTGAAT: 0.138
GCCTGGGA: -0.345
ACACCAGC: -0.288
GACGCAGA: -0.189
CAGTGTTA: 0.0488
ACCAACCC: -0.224
CATTCCCC: -0.181
GCTCAAAA: 0.0664
CGTTGGGC: -0.287
TATCTCGA: 0.142
CGTCTTAA: 0.03
CATTCCAG: 0.0322
ATGCGGCA: -0.157

Study 3
Target: RNA binding protein fox-1 homolog 2, RRM domain, GST-SBP tag (RBFOX2, Homo sapiens, UniProt O43251-10, residues 100-194)
Method: RNA Bind-n-Seq
Form: RNA
Medium: in vitro
Concentration: 365 nM
Setting: natural RNA segment, single round, ends assumed
Reference: no-protein control
Direction: higher = stronger binding
Endpoint: RBNS enrichment (R)
Shared flanks, not repeated: GGGAGUUCUACAGUCCGACGAUC … UGGAAUUCUCGGGUGCCAA
Construct (chain): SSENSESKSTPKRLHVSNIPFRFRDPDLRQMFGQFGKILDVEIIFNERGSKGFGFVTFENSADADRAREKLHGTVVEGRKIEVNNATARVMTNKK
GUGCACAUUUGUGAUCAGCAUUGUGACUUGGAGAUAAUAAAAUUUAGACUGUAGACUUGACUCUGUGGCCAGUUAUUGUGUGUCUUGAUUUGGGAGGGAAGGAAGACUAA: 1.61
CUAGCAAGCGACCGCUGUUGGCCGAGCUUCACUCAUGACUGCAGCGUGCAUGUAUCUCUUCACCAUGUCUUCUCUCACCUUCACUAAGGAGUCACCAGAUCAUCUGGCUC: 2.29
UGGCAGGCAGUCCCAUGCUCUGGGCCUUACCUCUAGUCCCCUGCCUGCUCACACCUGGUCCCCUAGCCUUUUCUCUUGGGCAGUGUAGUAGUAUGGGCGAGCCACCCUCA: 0.408
GAAAGUUCCACUAAACGGUAUUUGCUCUUGUGAUAUGUGGCACAUUGUGAUAUUUUCUUAGUCUGUUCUGUUUUAUUUAAAAAAUAAAACUGCUGAUCAAGACAAGUGAA: 0.315
ACCUCAGGCAACGGGUGGAGCAGUUUGCCAGGGCCUUCCCCAUGCCUGGUUUUGAUGAGCAUUGAAGGCACCUGGGAAAUGAGGCCCACAGACUCAAAGUUACUCUCCUU: 1.35
UAGAGGCCAUUGUCUUCUGUCCUGAUCAGGUGGCCUGGCUGUUUCUUUGGAUCCCUCUGUCCCAGAGCCACCCAGAACCCUGACUCUUGAGAAUCAAGAAAACACCCAGA: 0.309
GGCACUGGAAAGCCUCUGUCUUCCCAGCCCUUGCCUCUCCAGGAAACUCCACAGGCCUCCAGAGAAUACCAGUUUCUCAGCCCAAGGGGUCCAUCACUGAGAAGUGCCCA: 0.222
GGAACAAGGGUCACUGGACCCUUGGGGAAAGUGGGAAAAGAGCUAUGUGCAAGGGCAGAUGCUCCAAAGACAGAGAAAUGGUGGCACUCACAGUUUCAUGACAGAAUAAA: 1.83

Study 4
Target: Max dimerization protein 1, bHLH-zipper, MAX partner unstated (MXD1, Homo sapiens, UniProt Q05195, residues 56-136)
Method: protein-binding microarray
Form: double-stranded DNA, one strand shown
Medium: in vitro
Concentration: not given
Setting: k-mer, scored over probes, only values ≥0.25
Direction: higher = stronger binding
Endpoint: E-score
Target sequence (chain): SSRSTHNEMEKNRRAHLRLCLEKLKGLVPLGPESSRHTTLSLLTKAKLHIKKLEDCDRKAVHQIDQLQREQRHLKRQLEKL
CACGAGCG: 0.28
ACATGGGG: 0.438
ACACGTTA: 0.394
ACGAGGGG: 0.334
CATGTTGC: 0.335
CCCCCTCG: 0.255
AACGTGGT: 0.435
ACATGTCT: 0.302
GCATGTCA: 0.343
CACCATGA: 0.288
CGTGATCC: 0.31
ACCCCATG: 0.401
CAACATGA: 0.298
CAACACGC: 0.367
ATGCCCCG: 0.286
CAATCATG: 0.26
CCCCGCAC: 0.354
ACATATGG: 0.348
CATGTCGC: 0.357
CACGCCCC: 0.337
ATGCATGC: 0.385
ACCCACGT: 0.427
CACGGGGG: 0.398

A few entries again (study 4):
ACATGGGG: 0.438
AACGTGGT: 0.435
CAACACGC: 0.367
CATGTTGC: 0.335
CGTGATCC: 0.31
CCCCGCAC: 0.354
CACCATGA: 0.288
